Measurements from different studies.
Compare with care: the assays were run in different laboratories. ± marks the error that the study gave.
Organism: Pseudomonas aeruginosa

Compound	method	strain	medium	time	temperature	MIC
N=C(N)NCCC[C@H](NC(=O)[C@H](Cc1c[nH]cn1)NC(=O)[C@@H]1CCCN1C(=O)[C@H](CS)NC(=O)[C@@H]1CCCN1)C(=O)N[C@@H](CS)C(=O)O	broth microdilution	MTCC 1688	–	–	37 °C	70 mg/L
CC[C@H](C)[C@H](NC(=O)[C@H](C)NC(=O)[C@H](C)NC(=O)[C@H](CC(N)=O)NC(=O)[C@H](C)NC(=O)[C@H](C)NC(=O)[C@H](C)NC(=O)[C@H](CCCNC(=N)N)NC(=O)[C@H](CC(C)C)NC(=O)[C@@H](NC(=O)[C@H](CCC(=O)O)NC(=O)[C@@H]1CCCN1C(=O)CNC(=O)[C@H](CCCCN)NC(=O)[C@H](CCC(=O)O)NC(=O)[C@H](CCCCN)NC(=O)[C@@H](NC(=O)[C@H](Cc1ccccc1)NC(=O)[C@H](CC(=O)O)NC(=O)[C@H](CCCCN)NC(=O)[C@H](C)NC(=O)[C@H](CCCCN)NC(=O)[C@H](CC(N)=O)NC(=O)[C@H](CC(C)C)NC(=O)[C@H](Cc1c[nH]c2ccccc12)NC(=O)[C@H](CC(=O)O)NC(=O)[C@H](CCCCN)NC(=O)[C@H](Cc1c[nH]c2ccccc12)NC(=O)CN)[C@@H](C)CC)[C@@H](C)CC)C(=O)N[C@@H](CC(N)=O)C(=O)O	broth microdilution	ATCC 27853	–	20 h	37 °C	11.8 to 23.7 µM
CC[C@H](C)[C@H](NC(=O)[C@H](CO)NC(=O)[C@@H](NC(=O)[C@H](C)NC(=O)[C@H](CCC(N)=O)NC(=O)CNC(=O)[C@@H](NC(=O)[C@@H](NC(=O)CNC(=O)[C@@H](NC(=O)[C@H](C)NC(=O)[C@@H]1CCCN1C(=O)CNC(=O)[C@H](C)NC(=O)[C@H](CCCCN)NC(=O)[C@@H](NC(=O)[C@@H](NC(=O)CNC(=O)[C@H](CC(=O)O)NC(=O)[C@H](CCCNC(=N)N)NC(=O)[C@@H](NC(=O)[C@H](CCCCN)NC(=O)[C@H](CCCNC(=N)N)NC(=O)CNC(=O)[C@@H](NC(=O)[C@H](CCCCN)NC(=O)[C@H](CCC(=O)O)NC(=O)[C@@H](NC(=O)[C@H](CCCCN)NC(=O)[C@H](CCCCN)NC(=O)[C@H](CC(C)C)NC(=O)[C@H](Cc1ccccc1)NC(=O)[C@H](CCCCN)NC(=O)[C@H](Cc1c[nH]c2ccccc12)NC(=O)[C@@H](N)CCCNC(=N)N)[C@@H](C)CC)C(C)C)C(C)C)C(C)C)[C@@H](C)CC)C(C)C)C(C)C)C(C)C)[C@@H](C)O)C(=O)N[C@@H](Cc1ccc(O)cc1)C(=O)N[C@@H](CCCCN)C(N)=O	broth microdilution	ATCC 27850	–	20 h	37 °C	5 ± 2.5 mg/L
CC[C@H](C)[C@H](NC(=O)CN)C(=O)NCC(=O)N[C@@H](C)C(=O)N[C@H](C(=O)N[C@@H](CC(C)C)C(=O)N[C@@H](CCCCN)C(=O)N[C@H](C(=O)N[C@@H](CC(C)C)C(=O)N[C@H](C(=O)N[C@H](C(=O)NCC(=O)N[C@@H](CC(C)C)C(=O)N1CCC[C@H]1C(=O)N[C@@H](C)C(=O)N[C@@H](CC(C)C)C(=O)N[C@H](C(=O)N[C@@H](CO)C(=O)N[C@@H](Cc1c[nH]c2ccccc12)C(=O)N[C@H](C(=O)N[C@@H](CCCCN)C(=O)N[C@@H](CCCNC(=N)N)C(=O)N[C@@H](CCCCN)C(=O)N[C@@H](CCCNC(=N)N)C(=O)N[C@@H](CCC(N)=O)C(=O)N[C@@H](CCC(N)=O)C(N)=O)[C@@H](C)CC)[C@@H](C)CC)[C@@H](C)O)[C@@H](C)O)C(C)C)C(C)C	broth microdilution	KCTC 1637	–	16 h	37 °C	1.6 µM
CC[C@H](C)[C@H](NC(=O)[C@H](CC(=O)O)NC(=O)[C@H](Cc1ccccc1)NC(=O)[C@H](CC(C)C)NC(=O)CN)C(=O)N[C@H](C(=O)N[C@@H](CCCCN)C(=O)N[C@@H](CCCCN)C(=O)N[C@H](C(=O)N[C@H](C(=O)NCC(=O)N[C@@H](CC(C)C)C(=O)N[C@@H](CC(C)C)C(=O)N[C@@H](CCCCN)C(N)=O)C(C)C)C(C)C)C(C)C	–	ATCC 19606	CAMHB	18 h	37 °C	> 21 µM
O=c1c(Cc2ccccc2)nc2ccccc2n1-c1ccc([N+](=O)[O-])cc1[N+](=O)[O-]	–	ATCC 29853	–	–	–	125 mg/L
CSCC[C@H](NC(=O)CNC(=O)[C@H](Cc1c[nH]cn1)NC(=O)[C@H](CC(C)C)NC(=O)[C@H](CO)NC(=O)[C@@H](NC(=O)[C@@H]1CCCN1C(=O)[C@H](Cc1c[nH]cn1)NC(=O)[C@H](CC(C)C)NC(=O)[C@H](CC(C)C)NC(=O)[C@H](CO)NC(=O)[C@@H](N)[C@@H](C)O)C(C)C)C(=O)N[C@@H](CC(=O)O)C(=O)N[C@@H](CC(=O)O)C(=O)N1CCC[C@H]1C(=O)N[C@@H](CCC(=O)O)C(=O)N[C@@H](CCCNC(=N)N)C(=O)N[C@@H](CCC(=O)O)C(=O)N[C@H](C(=O)N[C@@H](CC(C)C)C(=O)O)C(C)C	broth microdilution	PTCC 1074	–	overnight	37 °C	20 µM
O=[N+]([O-])c1ccc(-n2ccnc2)c([N+](=O)[O-])c1	–	ATCC 29853	–	–	–	125 mg/L
CC(C)C[C@H](NC(=O)CN)C(=O)N[C@@H](Cc1ccccc1)C(=O)N[C@@H](CCCCN)C(=O)N[C@@H](CC(C)C)C(=O)N[C@@H](CC(C)C)C(=O)N[C@@H](CCCCN)C(=O)N[C@@H](CCCCN)C(=O)N[C@@H](CC(C)C)C(=O)N[C@@H](CC(C)C)C(=O)N[C@@H](CCCCN)C(=O)N[C@@H](CC(C)C)C(=O)N[C@@H](CC(C)C)C(=O)N[C@@H](CCCCN)C(N)=O	–	ATCC 19606	CAMHB	18 h	37 °C	> 20 µM
CC[C@H](C)[C@H](NC(=O)CNC(=O)[C@H](CCCNC(=N)N)NC(=O)[C@H](Cc1ccccc1)NC(=O)[C@@H](NC(=O)[C@H](Cc1c[nH]cn1)NC(=O)[C@H](Cc1c[nH]cn1)NC(=O)[C@H](Cc1ccccc1)NC(=O)[C@@H](N)Cc1ccccc1)[C@@H](C)CC)C(=O)N[C@H](C(=O)N[C@@H](Cc1c[nH]cn1)C(=O)N[C@H](C(=O)NCC(=O)N[C@@H](CCCCN)C(=O)N[C@H](C(=O)N[C@H](C(=O)N[C@@H](Cc1c[nH]cn1)C(=O)N[C@@H](CCCNC(=N)N)C(=O)N[C@@H](CC(C)C)C(=O)N[C@H](C(=O)N[C@H](C(=O)NCC(N)=O)[C@@H](C)O)C(C)C)[C@@H](C)CC)[C@@H](C)O)C(C)C)C(C)C	broth microdilution	ATCC 10662	–	18 h	37 °C	25 mg/L
CC[C@H](C)[C@H](NC(=O)[C@H](C)NC(=O)[C@H](CCCCN)NC(=O)[C@H](CC(C)C)NC(=O)[C@H](C)NC(=O)[C@@H](NC(=O)[C@H](Cc1c[nH]cn1)NC(=O)[C@H](CC(C)C)NC(=O)[C@@H](NC(=O)[C@@H](NC(=O)[C@H](CCCCN)NC(=O)[C@H](CCCCN)NC(=O)[C@H](C)NC(=O)[C@H](CO)NC(=O)[C@H](CCCCN)NC(=O)[C@H](Cc1ccccc1)NC(=O)[C@@H](NC(=O)[C@H](CCCCN)NC(=O)[C@H](CC(C)C)NC(=O)[C@H](Cc1ccccc1)NC(=O)[C@H](CO)NC(=O)[C@H](CCCCN)NC(=O)[C@H](Cc1c[nH]c2ccccc12)NC(=O)[C@H](CCCCN)NC(C)=O)[C@@H](C)O)[C@@H](C)O)C(C)C)[C@@H](C)O)C(=O)N[C@@H](CO)C(=O)N[C@@H](CO)C(N)=O	broth dilution	ATCC 27853	Mueller-Hinton broth	24 h	37 °C	8 mg/L

Some of these lines once more:
Compound	method	strain	medium	time	temperature	MIC
CC[C@H](C)[C@H](NC(=O)[C@H](CO)NC(=O)[C@@H](NC(=O)[C@H](C)NC(=O)[C@H](CCC(N)=O)NC(=O)CNC(=O)[C@@H](NC(=O)[C@@H](NC(=O)CNC(=O)[C@@H](NC(=O)[C@H](C)NC(=O)[C@@H]1CCCN1C(=O)CNC(=O)[C@H](C)NC(=O)[C@H](CCCCN)NC(=O)[C@@H](NC(=O)[C@@H](NC(=O)CNC(=O)[C@H](CC(=O)O)NC(=O)[C@H](CCCNC(=N)N)NC(=O)[C@@H](NC(=O)[C@H](CCCCN)NC(=O)[C@H](CCCNC(=N)N)NC(=O)CNC(=O)[C@@H](NC(=O)[C@H](CCCCN)NC(=O)[C@H](CCC(=O)O)NC(=O)[C@@H](NC(=O)[C@H](CCCCN)NC(=O)[C@H](CCCCN)NC(=O)[C@H](CC(C)C)NC(=O)[C@H](Cc1ccccc1)NC(=O)[C@H](CCCCN)NC(=O)[C@H](Cc1c[nH]c2ccccc12)NC(=O)[C@@H](N)CCCNC(=N)N)[C@@H](C)CC)C(C)C)C(C)C)C(C)C)[C@@H](C)CC)C(C)C)C(C)C)C(C)C)[C@@H](C)O)C(=O)N[C@@H](Cc1ccc(O)cc1)C(=O)N[C@@H](CCCCN)C(N)=O	broth microdilution	ATCC 27850	–	20 h	37 °C	5 ± 2.5 mg/L
